Results of several laboratories.
Cell line: HCT-116

SMILES | observed | technique | time | relative to | selectivity index
COc1nc(NCc2cn(-c3ccc(C(=O)Nc4ccc([N+](=O)[O-])cc4)cc3)nn2)nc(OC)n1 | – | MTT | 72 h | normal colonocytes over HCT-116 | 1.1
O=C1/C(=C/c2ccc3ccccc3c2O)NC(=S)N1c1ccccc1 | – | – | – | BJ1 IC50 over HCT-116 IC50 | 1.5
Cc1cc(NS(=O)(=O)c2ccc(NC(=O)/C(C#N)=C/c3ccc(N4CCOCC4)cc3)cc2)no1 | cytotoxicity | MTT | – | HSF over HCT-116 IC50 | > 2.95
CC(=NN=c1[nH]c(C)c(N=Nc2ccc(C)cc2)s1)c1c(O)c2ccccc2oc1=O | cell growth | MTT | – | IC50 BJ-1 over HCT-116 | > 2.19
COc1cccc2c1C(=O)c1c(O)c3c(c(O)c1C2=O)C[C@@](O)(C(=O)CO)C[C@@H]3O[C@H]1C[C@H](N)[C@H](O)[C@H](C)O1 | – | – | – | BJ1 IC50 over HCT-116 IC50 | 0.9
CC1(P2(=O)CCCCC2)CCCCC1 | – | MTT | 72 h | IC50 HaCaT over IC50 HCT-116 | 1.4
CCn1c(C)c(C(C)=O)sc1=NN=C(C)c1c(O)c2ccccc2oc1=O | cell growth | MTT | – | IC50 BJ-1 over HCT-116 | > 2.57
COc1ccc(C(=O)Nc2ccc(-n3cc(CNc4nc(OC)nc(OC)n4)nn3)cc2)cc1 | – | MTT | 72 h | normal colonocytes over HCT-116 | 0.22
O=P1(C2CCCCC2)CCCCC1 | – | MTT | 72 h | IC50 HaCaT over IC50 HCT-116 | 7.2
CCOC(=O)c1sc(=NN=C(C)c2c(O)c3ccccc3oc2=O)n(CC)c1C | cell growth | MTT | – | IC50 BJ-1 over HCT-116 | > 4.05
COc1nc(NCc2cn(-c3ccc(NC(=O)c4ccc(Cl)cc4)cc3)nn2)nc(OC)n1 | – | MTT | 72 h | normal colonocytes over HCT-116 | 0.54
CCn1c(C)c(N=Nc2ccc(C)cc2)sc1=NN=C(C)c1c(O)c2ccccc2oc1=O | cell growth | MTT | – | IC50 BJ-1 over HCT-116 | > 2.49
Cc1cc(NS(=O)(=O)c2ccc(NC(=O)/C(C#N)=C/c3ccncc3)cc2)no1 | cytotoxicity | MTT | – | HSF over HCT-116 IC50 | > 1.07
COc1nc(NCc2cn(-c3ccc(NC(=O)c4ccc(F)cc4)cc3)nn2)nc(OC)n1 | – | MTT | 72 h | normal colonocytes over HCT-116 | 1.21
CC(=NN=C1SCC(=O)N1C)c1c(O)c2ccccc2oc1=O | cell growth | MTT | – | IC50 BJ-1 over HCT-116 | > 2.43

Some of these lines once more:
SMILES | observed | technique | time | relative to | selectivity index
Cc1cc(NS(=O)(=O)c2ccc(NC(=O)/C(C#N)=C/c3ccc(N4CCOCC4)cc3)cc2)no1 | cytotoxicity | MTT | – | HSF over HCT-116 IC50 | > 2.95
